Measured values collected from several papers.
Each line is one published result; not all experiments were run side by side. ± marks the error that the study gave.

Compound = O=C(N[C@H](CO)[C@H](O)c1ccc([N+](=O)[O-])cc1)C(Cl)Cl; test = starch gel membrane permeability; system = Gram-negative envelope surrogate; conditions = 200 µM, 45 min, pH 7.4; measurement = amount permeated; value = 3.5 nmol
Compound = COc1ccc2[nH]c([S+]([O-])Cc3ncc(C)c(OC)c3C)nc2c1 (stereo not drawn); system = human male, plasma and dried plasma spots; conditions = oral, dose not given, 4 h, after rifampicin; measurement = R/S ratio; value = 0.76
Compound = CCn1cc(C(=O)O)c(=O)c2cnc(N3CCNCC3)nc21; test = starch gel membrane permeability; system = Gram-negative envelope surrogate; conditions = 200 µM, 45 min, pH 7.4; measurement = amount permeated; value = 2.92 nmol
Compound = Cc1nc(-c2ccc(OCC(C)C)c(C#N)c2)sc1C(=O)O; system = human, plasma; conditions = oral, 40 mg once daily, added: verinurad 5 mg; measurement = AUC(0-24); value = 5620 ng·h/mL
Compound = CO[C@H]1C[C@@H]2CC[C@@H](C)[C@@](O)(O2)C(=O)C(=O)N2CCCC[C@H]2C(=O)O[C@H]([C@H](C)C[C@@H]2CC[C@@H](O)[C@H](OC)C2)CC(=O)[C@H](C)/C=C(\C)[C@@H](O)[C@@H](OC)C(=O)[C@H](C)C[C@H](C)/C=C/C=C/C=C/1C; system = healthy adult horses; conditions = oral, 0.06 mg/kg, 48 h; measurement = heart rate; value = 33.5 ± 2.8 beats/min
Compound = NC1(C(=O)N[C@@H](CCO)c2ccc(Cl)cc2)CCN(c2nc[nH]c3nccc2-3)CC1; system = metastatic CRPC patients; conditions = 320 mg b.i.d., grade 3 to 4, treatment-related, added: enzalutamide 160 mg daily; measurement = incidence of Amnesia; value = 0%
Compound = NC/C(=C\F)COc1cccc(Cn2c(=S)[nH]c(=O)c3[nH]cnc32)c1; system = human hepatocytes; conditions = 1 µM, 1 h; measurement = remaining compound; value = 75%
Compound = O=C(O)CCc1ccccc1O; system = human plasma; conditions = mean; measurement = plasma concentration; value = 2720 nM
Compound = CC(C)c1nc(CN(C)C(=O)N[C@H](C(=O)N[C@@H](Cc2ccccc2)C[C@H](O)[C@H](Cc2ccccc2)NC(=O)OCc2cncs2)C(C)C)cs1; system = Macaca nemestrina, plasma; conditions = intravenous, time-averaged; measurement = minimum DcNP-associated fraction; value = > 87%
Compound = CO[C@H]1/C=C/O[C@@]2(C)Oc3c(C)c(O)c4c(O)c(c(/C=N/N5CCN(C)CC5)c(O)c4c3C2=O)NC(=O)/C(C)=C\C=C\[C@H](C)[C@H](O)[C@@H](C)[C@@H](O)[C@@H](C)[C@H](OC(C)=O)[C@@H]1C; test = starch gel membrane permeability; system = Gram-negative envelope surrogate; conditions = 200 µM, 90 min, pH 7.4; measurement = amount permeated; value = 3.16 nmol
Compound = Nc1ncn([C@H]2C[C@H](O)[C@@H](CO)O2)c(=O)n1; system = mouse plasma; conditions = 1.2 ng/mL, -80 °C, three freeze-thaw cycles, with THU; measurement = mean deviation from nominal; value = 9.78%
Compound = O=C(O)CCc1ccc(O)c(O)c1; system = human plasma; conditions = mean; measurement = plasma concentration; value = 266 nM
Compound = Cc1cccc(CNC(=O)c2cn(CCNC(=O)c3ccccc3S)c3cc4c(cc3c2=O)OC(F)(F)O4)n1; system = Sprague-Dawley rat, male, plasma; conditions = intramuscular, 30 mg/kg of parent drug; measurement = Tmax; value = 9.67 ± 7.22 h
Compound = O=C(O)[C@H]1O[C@@H](Oc2ccc(/C=C\c3cc(O)cc(O)c3)cc2)[C@H](O)[C@@H](O)[C@@H]1O; system = human, cerebrospinal fluid; measurement = samples above LOQ; value = 0%
Compound = Cc1ccc(Sc2ccccc2N2CCNCC2)c(C)c1; test = item: ALT increased; system = healthy adult women; conditions = oral, 5 mg daily, 12 days; measurement = participants with TEAE; value = 0%
Compound = C[C@@H]1CN(c2c(F)c(N)c3c(=O)c(C(=O)O)cn(C4CC4)c3c2F)C[C@H](C)N1; test = starch gel membrane permeability; system = Gram-negative envelope surrogate; conditions = 200 µM, 90 min, pH 7.4; measurement = amount permeated; value = 1.97 nmol
Compound = N#Cc1ccc2c(c1)[C@H]1CCCN(C(=O)c3ccc4[nH]cnc4c3)[C@H]1C2; system = human; conditions = 40 mg, end of trial; measurement = minimum ACTH level; value = 2 pmol/L
Compound = NS(=O)(=O)c1cc(C(=O)O)c(NCc2ccco2)cc1Cl; test = item: oropharyngeal pain; system = healthy men; conditions = oral, 8 days, treatment-emergent, crossover trial; measurement = subjects with adverse event; value = 0%
Compound = O=C(O)CCC(=O)O.[2H]C([2H])([2H])Oc1cc(C)c2[nH]ccc2c1CN1CC[C@@H](C2CC2)C[C@H]1c1ccc(C(=O)O)cc1; system = healthy Chinese subjects; conditions = 50 mg twice daily, multiple ascending dose; measurement = TEAE elevated monocyte; value = 0%
Compound = O=C(O)CC(O)(CC(=O)O)C(=O)O; test = ELISA; system = Wistar rat; conditions = 175 and 1000 mg/kg, two and four weeks; measurement = ALT level; value = increased
Compound = C[C@@H](c1nc(-c2ccc(C#N)cc2)cs1)[C@](O)(Cn1cncn1)c1cc(F)ccc1F; test = flatulence; system = human; conditions = oral, dose not given, added: ethinyl estradiol/norethindrone; measurement = subjects with adverse event; value = 8.7%
Compound = CCN(CC)CCCC(C)Nc1ccnc2cc(Cl)ccc12 (stereo not drawn); target or system = COS-7; conditions = 100 µM, 24 h, 0.1% DMSO, unit not given; scale = reference: control; measurement = confluence; value = 0.47 ± 0.05
Compound = Cc1c(Cl)c(C)[n+]([O-])c(Cl)c1-c1noc(-c2cc(O)c(O)c([N+](=O)[O-])c2)n1; system = healthy Caucasian subjects; conditions = oral, 50 mg, 10 days; measurement = TEAE incidence; value = 40%
Compound = CC(C)NCCCC[C@@H]1NC(=O)[C@H](Cc2ccc(O)cc2)NC(=O)[C@H](Cc2ccccc2)NC(=O)CC[C@H](C(=O)N[C@@H](CCCCNC(C)C)C(=O)N[C@@H](CCCCNC(=O)[C@H](CCC(=O)O)NC(=O)[C@H](CCC(=O)O)NC(=O)[C@H](CCC(=O)O)NC(=O)CN2CCN(CC(=O)O)CCN(CC(=O)O)CCN(CC(=O)O)CC2)C(N)=O)NC(=O)CNC(=O)[C@H](Cc2ccc3ccccc3c2)NC(=O)[C@@H](CCCNC(=N)N)NC1=O [gallium-68 labelled]; system = mouse with JeKo-1 xenograft, liver; conditions = intravenous, 1 h; measurement = tissue uptake; value = 0.75 %ID/g
Compound = COc1ccc2c(c1)CN(C(=O)CCN1CCC(Cc3ccccc3)CC1)CC[S@@+]2[O-]; test = telemetry; system = conscious male beagle dogs; conditions = intravenous, 8 mg/kg, 0.5 h; measurement = systolic blood pressure; value = 145 ± 30 mmHg
Compound = CN(C(=O)n1cnc(-c2cccnc2)c1)C1CCCCC1; system = Wistar rat, cerebellum; conditions = oral, 10 mg/kg/day of BIA 10-2474, 48 h, repeated 5 days; measurement = concentration; value = 5.8 ± 0.1 ng/g
Compound = COc1c(O)c(C)cc2c1C(=O)c1c(O)cccc1C2=O; target or system = HepaRG co-cultured with HK-2; test = MTT; conditions = 133.33 µM, 24 h; scale = reference: untreated control; measurement = cell viability; value = 54.9 ± 8.5%
Compound = O=C(COc1ccc(Cl)cc1)NC12CC(c3nnc([C@H]4C[C@@H](OC(F)(F)F)C4)o3)(C1)C2; system = human both sexes; conditions = oral, 45 mg single dose; measurement = postural dizziness participants; value = 16.7%
Compound = O=C(O)[C@H]1O[C@@H](Oc2ccccc2O)[C@H](O)[C@@H](O)[C@@H]1O; system = human plasma; conditions = median; measurement = plasma concentration; value = 150 nM
Compound = CN(C)[C@@H]1C(O)=C(C(N)=O)C(=O)[C@@]2(O)C(O)=C3C(=O)c4c(O)cccc4[C@@](C)(O)[C@H]3C[C@@H]12; test = starch gel membrane permeability; system = Gram-negative envelope surrogate; conditions = 200 µM, 45 min, pH 7.4; measurement = amount permeated; value = 2.46 nmol
Compound = O=C(O)c1cccc(C(=O)O)c1; system = Bet/EG deep eutectic solvent; conditions = 303.0 K; measurement = apparent dissolution enthalpy; value = 15 kcal/mol
Compound = O=C(O)CCc1cc(O)cc(O)c1; system = human plasma; conditions = mean; measurement = plasma concentration; value = 1100 nM
Compound = [18F]c1ccc(-c2ccc3c(c2)[nH]c2ccncc23)cn1; test = ex vivo biodistribution; system = APP/PS1 mouse, AD model, pancreas; conditions = intravenous, 30 min; measurement = SUV; value = 1.23 ± 0.033
Compound = CNC(=O)c1ccc(-c2cnc3ncc(Cc4ccc5ncccc5c4)n3n2)cc1F; test = item: Hypoalbuminemia, all grades; system = cancer patients; conditions = oral, dose not given, dose escalation, any causality; measurement = patients with adverse event; value = 24%
Compound = COC(=O)c1cn(C)c2ccc(-c3cccnc3)cc12; target or system = COS-7; test = WST-8; conditions = 30 µM, 24 h, 0.1% DMSO, unit not given; scale = reference: vehicle control; measurement = metabolic activity; value = 0.21 ± 0.01
Compound = O=C(Nc1ccc(OC(F)(F)Cl)cc1)c1cnc(N2CC[C@@H](O)C2)c(-c2ccn[nH]2)c1; test = per treatment cycle, item: platelet decrease; system = human patients; conditions = oral, dose not given, 28 day cycle; measurement = grade ≥3 event rate; value = 4.4%
Compound = CCCCCCOC(=O)NC(=N)c1ccc(NCc2nc3cc(C(=O)N(CCC(=O)OCC)c4ccccn4)ccc3n2C)cc1; test = item: Nausea; system = human; conditions = oral, 75 mg, alone; measurement = participants with adverse event; value = 4.2%
Compound = CN(Cc1cnc2nc(N)nc(N)c2n1)c1ccc(C(=O)N[C@@H](CCC(=O)O)C(=O)O)cc1; test = lipid PAMPA; system = PBS; conditions = 10 µM, 16 h, pH 7.4, 25 °C; measurement = permeability (Pe); value = < 0.00102 ×10⁻⁶ cm/s
Compound = O=C(Nc1nc2cccc(-c3ccc(CN4CCS(=O)(=O)CC4)cc3)n2n1)C1CC1; test = item: metabolism and nutrition disorders; system = human rheumatoid arthritis patients; conditions = oral, 30 mg once daily, 4 weeks, regardless of relatedness; measurement = treatment-emergent adverse events; value = 0%
Compound = COc1cc2c(c(O)c1OC)C(=O)c1c(cc(C)c(O[C@@H]3O[C@H](CO)[C@@H](O)[C@H](O)[C@H]3O)c1OC)C2=O; target or system = HepaRG co-cultured with HK-2; test = MTT; conditions = 16.67 µM, 48 h; scale = reference: untreated control; measurement = cell viability; value = 89.6 ± 4.78%
Compound = COc1cc(C=O)ccc1O; system = human plasma; conditions = mean, both sexes; measurement = plasma concentration; value = 1570 nM
Compound = CC(C)(c1ccc(O)cc1)c1ccc(O)cc1; test = HPLC-MS; system = zebrafish embryos, whole embryo; conditions = waterborne, 1 nM, 50 h, from 8 to 58 hpf; measurement = uptake per embryo; value = ~0.025 fmol
Compound = CC(F)(F)c1nc2nc(CO)cc(Nc3ccc(S(F)(F)(F)(F)F)cc3)n2n1; test = LC-MS/MS; system = malaria patients, plasma; conditions = oral, 800 mg of parent drug; measurement = Cmax, metabolite; value = 1350 ng/mL
Compound = O=C1NCCc2nc(OCc3cccc(F)c3)ccc21; test = item: loss of Escape; system = Sprague-Dawley rat male; conditions = oral, 100 mg/kg, 1 h; scale = direction not given; measurement = Irwin test score; value = 0
Compound = CCO[C@H]1CCN(Cc2c(OC)cc(C)c3[nH]ccc23)[C@H](c2ccc(C(=O)O)cc2)C1; system = C57BL/6 mouse; conditions = intravenous, 1 mg/kg, dose-normalised; measurement = AUC(0-7 h); value = 1.66 µM·h
Compound = CCc1nc(C(N)=O)c(Nc2ccc(N3CCC(N4CCN(C)CC4)CC3)c(OC)c2)nc1NC1CCOCC1; test = LC-MS/MS; system = relapsed/refractory AML patients, plasma; conditions = oral, 200 mg once daily, cycle 1 day 15, median, from accumulation ratio; measurement = t1/2; value = 142 h
Compound = CCn1ncc2c1-c1cnc(N)c(c1)O[C@H](C)c1cc(F)ccc1-c1nn(C)nc1C2; system = athymic nude mouse, female, sample A PDX, plasma; conditions = po, 0.04 mg/kg BID, 12 h, 5 days dosing; measurement = Cmin, unbound; value = 0.4 ± 0.06 nM
Compound = CO[C@@H]1[C@H](OC(=O)N2CC(CCN3CCOCC3)C2)CC[C@]2(CO2)[C@H]1[C@@]1(C)O[C@@H]1CC=C(C)C; system = humans; conditions = subcutaneous, 1.8 mg twice weekly for 4 weeks, day 28; scale = reference: baseline; measurement = international normalized ratio; value = 0.01 ± 0.04

Excerpt of the above:
Compound = COc1c(O)c(C)cc2c1C(=O)c1c(O)cccc1C2=O; target or system = HepaRG co-cultured with HK-2; test = MTT; conditions = 133.33 µM, 24 h; scale = reference: untreated control; measurement = cell viability; value = 54.9 ± 8.5%
Compound = O=C(COc1ccc(Cl)cc1)NC12CC(c3nnc([C@H]4C[C@@H](OC(F)(F)F)C4)o3)(C1)C2; system = human both sexes; conditions = oral, 45 mg single dose; measurement = postural dizziness participants; value = 16.7%
Compound = O=C(O)[C@H]1O[C@@H](Oc2ccccc2O)[C@H](O)[C@@H](O)[C@@H]1O; system = human plasma; conditions = median; measurement = plasma concentration; value = 150 nM
Compound = CN(C)[C@@H]1C(O)=C(C(N)=O)C(=O)[C@@]2(O)C(O)=C3C(=O)c4c(O)cccc4[C@@](C)(O)[C@H]3C[C@@H]12; test = starch gel membrane permeability; system = Gram-negative envelope surrogate; conditions = 200 µM, 45 min, pH 7.4; measurement = amount permeated; value = 2.46 nmol
Compound = O=C(O)c1cccc(C(=O)O)c1; system = Bet/EG deep eutectic solvent; conditions = 303.0 K; measurement = apparent dissolution enthalpy; value = 15 kcal/mol
